Measurements pooled from the literature.
Protocols differ between the studies behind these lines. Values joined by “and” are separate records of one study, mostly repeats; a detail may differ.

Structure (SMILES)	target or system	assay	test system	setting	how to read	measurement	result
N#Cc1ccc(-c2c(-c3ccccn3)nc3n2CCC3)cn1	Leishmania infantum		macrophages, MHOM/MA(BE)/67/ITMAP263, amastigote			IC50	50.8 µM and > 64 µM
Oc1ccccc1-c1n[nH]cc1-c1ccnc2ccccc12	IRE1 (Candida albicans)	kinase binding, MIB/MS competition	Candida albicans lysate	10 µM	reference: DMSO	log2 fold change	0.21
Cl.OCCNc1nc(Nc2ccccc2)nc2ccccc12	Renilla luciferase reporter mRNA	in vitro translation, inhibitor	Trypanosoma cruzi translation extract	30 µM		inhibition	64.6%
COc1cccc(C(=O)O)c1	THP-1	pyroptotic LDH release		2 µM, 40 min, together with: LPS then nigericin		inhibition	-6.66%
CC(C)n1ncc2c(C(=O)NCC3(C)CNC3)cc(C3CC3)nc21	Enterovirus D68	cytopathic effect	RD, US/MO/14-18949	500 nM		cell protection	66% and 53.6% and 79.2%
Cn1cc(-c2ccc(-c3cncc(Cl)c3N3CCC4(CCNC4=O)CC3)cc2)cn1	COLO 205	gene expression, microarray, measured: PFKFB4 mRNA		concentration not given, 6 h	reference: untreated cells	log2 fold change	2.54
Cc1c[nH]c2ccccc12	THP-1	pyroptotic LDH release		2 µM, 40 min, together with: LPS then nigericin		inhibition	-1.51%
NCC(=O)Nc1cncc(-c2nn3c(=O)cc(N4CCNCC4)nc3s2)c1		ADP-induced platelet aggregation, light transmission aggregometry	human, stable CAD on aspirin, platelets ex vivo	subcutaneous, 0.075 mg/kg, 240 min post-dose, together with: ADP 20 µM		median inhibition	3.8%
Oc1ccc2cccc(O)c2n1	THP-1	pyroptotic LDH release		2 µM, 40 min, together with: LPS then nigericin		inhibition	9.94%
Fc1ccccc1Nc1nc(NCC2CCCO2)c2ccccc2n1 (centres unmarked)	Renilla luciferase reporter mRNA	in vitro translation, inhibitor	Trypanosoma cruzi translation extract	5 µM		inhibition	20.6%
Cc1ccn2cc(-c3ccccn3)nc2c1	Leishmania infantum		MHOM/MA(BE)/67/ITMAP263	120 h	reference: CC50 macrophages over EC50 amastigotes	selectivity index	3.2
O=C(/C=C/C=C/C=C/C1CCCCC1)NC1=C[C@@](O)(/C=C/C=C/C=C/C(=O)NC2=C(O)CCC2=O)[C@@H]2O[C@@H]2C1=O	NCI-H82	cell growth, CellTiter-Glo		78 h		GI50	0.0787 µM
OC(CCN1CCCCC1)(c1ccccc1)C1CC2C=CC1C2 (centres unmarked)		resting-state EEG	healthy elderly humans	oral, 4 mg, eyes open, LS mean	reference: baseline	Change in alpha power, EEG, Fz/Cz	14.9%
O=C(O)CNC(=O)Cc1ccccc1			ventricular cardiomyocytes, C57BL/6 mouse	dose not given, 0.52 s		sarcomere length	1.62 µm
COc1ccc2nc(-c3cc(N(C)C)ccn3)c(Nc3ccc(F)cc3)n2c1	Leishmania infantum		macrophages, MHOM/MA(BE)/67/ITMAP263, amastigote			IC50	1.49 µM and 2.01 µM
C[C@H](CCC(=O)O)[C@H]1CC[C@H]2[C@@H]3C[C@H](O)[C@@H]4C[C@H](O)CC[C@]4(C)[C@H]3CC[C@]12C	THP-1	pyroptotic LDH release		2 µM, 40 min, together with: LPS then nigericin		inhibition	-9.76%
Fc1ccc(Nc2c(-c3ccccn3)nc3ccccn23)c(F)c1	Leishmania infantum		macrophages, MHOM/MA(BE)/67/ITMAP263, amastigote			IC50	6.96 µM and 8.3 µM
CCNC(=O)/C=C/c1cccc(Br)c1	endogenous leucine transporters, hamster	L-[14C]leucine uptake	CHO-BC cells	100 µM, 6 min, 37 °C, with sodium		L-leucine uptake	49.6 nmol/mg protein and 53.5 nmol/mg protein and 50.1 nmol/mg protein
CCC[C@@H]1C[C@@H](C(=O)N[C@@H]([C@H]2O[C@H](SC)[C@H](O)[C@@H](O)[C@H]2O)[C@H](C)Cl)N(C)C1	THP-1	pyroptotic LDH release		2 µM, 40 min, together with: LPS then nigericin		inhibition	16.6%
c1coc(-c2n[nH]cc2-c2ccnc3ccccc23)c1	orf19.4518 Candida albicans	kinase binding, MIB/MS competition	Candida albicans lysate	1 µM	reference: DMSO	log2 fold change	-0.31
Oc1cccc2ccccc12	THP-1	pyroptotic LDH release		2 µM, 40 min, together with: LPS then nigericin		inhibition	3.12%
CC(C)NCC(O)c1ccc(O)c(O)c1 (centres unmarked)			ventricular cardiomyocytes, C57BL/6 mouse	dose not given, 0.108 s		sarcomere length	1.72 µm
COc1cnc2cccc(N3CCc4c(cc(Cn5ccnc5C)cc4-c4cn(C)nc4C(F)(F)F)C3=O)c2c1	COV644	cell growth		120 h		EC50	14.4 µM
CCC(=O)O[C@]1(C(=O)CCl)[C@@H](C)C[C@H]2[C@@H]3CCC4=CC(=O)C=C[C@]4(C)[C@@]3(F)[C@@H](O)C[C@@]21C	THP-1	pyroptotic LDH release		2 µM, 40 min, together with: LPS then nigericin		inhibition	23.3%
CCN1CCN(Cc2ccc(Nc3ncc(F)c(-c4cc(F)c5nc6n(c5c4)[C@H](C)CCC6)n3)nc2)CC1			human advanced solid tumours	500 mg, phase Ia monotherapy RECIST 1.1		median progression-free survival	10.6 months
CCn1cc(-c2cc(Cn3ccoc3=N)cc3c2CCN([C@@H](C)c2cc(OC)ccn2)C3=O)c(C(F)(F)F)n1	HEP3B217	cell growth		120 h		EC50	2.68 µM
O=C1C2CC3CC1CC(O)(C3)C2	THP-1	pyroptotic LDH release		2 µM, 40 min, together with: LPS then nigericin		inhibition	-13.6%
CCn1cc(-c2cc(Cn3ccnc3)cc3c2CCN([C@H](c2cc(OC)ccn2)C2CC2)C3=O)c(C(F)(F)F)n1	SUM-159-PT	cell growth, inhibitor		120 h		EC50	10.3 µM
COc1ccc2nc(-c3cc(N(C)C)ccn3)c(N(C)c3ccc(F)cc3)n2c1	Leishmania infantum		MHOM/MA(BE)/67/ITMAP263	120 h	reference: CC50 macrophages over EC50 amastigotes	selectivity index	2.5

A few entries again:
Structure (SMILES)	target or system	assay	test system	setting	how to read	measurement	result
Oc1cccc2ccccc12	THP-1	pyroptotic LDH release		2 µM, 40 min, together with: LPS then nigericin		inhibition	3.12%
N#Cc1ccc(-c2c(-c3ccccn3)nc3n2CCC3)cn1	Leishmania infantum		macrophages, MHOM/MA(BE)/67/ITMAP263, amastigote			IC50	50.8 µM and > 64 µM
CCNC(=O)/C=C/c1cccc(Br)c1	endogenous leucine transporters, hamster	L-[14C]leucine uptake	CHO-BC cells	100 µM, 6 min, 37 °C, with sodium		L-leucine uptake	49.6 nmol/mg protein and 53.5 nmol/mg protein and 50.1 nmol/mg protein
